Published values of several laboratories.
A part holds a random share of what one study measured.

Series 1
Target: Fragile X messenger ribonucleoprotein 1, C-terminal low-complexity region (Fmr1, Mus musculus, UniProt P35922)
Technique: RNA Bind-n-Seq
Molecule type: RNA
Medium: in vitro
Concentration: 200 nM
Setting: whole 134-nt RNA, ends assumed
Together with: 150 mM LiCl
Baseline: input library
Direction: higher = stronger binding
Library: 7-deaza-guanosine replaces G
Constant ends, left off below: GGGAGUUCUACAGUCCGACGAUC … UGGAAUUCUCGGGUGUCAAGG
| Oligonucleotide | log2 enrichment |
| --- | --- |
| CAAGUCCUGUGCUACACAUCGUAUGUACCGAAUCGGGUUUUUUUGGGAGGGUGGGAAAGUAUUAUGUUACGCCGUUCGGAUCUGCACUUC | -0.508 |
| CUCAAGUCCUGUGCUACACAUCGUAUGUACCGAAUCGGGGUUGGUUGGUUGGGGAAAGUAUUAUGUUACGCCGUUCGGAUCUGCACUUCC | -0.615 |
| UCCUCAAGUCCUGUGCUACACAUCGUAUGUACCGAAUCGGCGGCGGGCGGGAAAGUAUUAUGUUACGCCGUUCGGAUCUGCACUUCCAGC | 1.16 |
| CAAGUCCUGUGCUACACAUCGUAUGUACCGAAUCGGCCCCGGCCCCGGCCCCGGGAAAGUAUUAUGUUACGCCGUUCGGAUCUGCACUUC | -0.269 |
| UCCUGUGCUACACAUCGUAUGUACCGAAUCGGGGAAAAAGGGGAAAGGGGUUUUUGGGGAAAGUAUUAUGUUACGCCGUUCGGAUCUGCA | 0.245 |
| UCAAGUCCUGUGCUACACAUCGUAUGUACCGAAUCGGGGAAAGGGAAAGGAAAGGAAAGUAUUAUGUUACGCCGUUCGGAUCUGCACUUC | -1.15 |
| CUCAAGUCCUGUGCUACACAUCGUAUGUACCGAAUCGGGUUUGGGAGGGUGGGAAAGUAUUAUGUUACGCCGUUCGGAUCUGCACUUCCA | -0.291 |
| UGAGAAACUUGCUCAAAUAUUGGCAGCUAGACAGUUAGAAAUUAAACAGAUUCCAUCUGAUGGCCACUGUAUGUAUAAAGCCAUUGAAGA | -1.59 |

Series 2
Target: Replicase polyprotein 1ab, nsp13 helicase (rep, Severe acute respiratory syndrome coronavirus 2, UniProt P0DTD1)
Mode: inhibitor
Concentration: 20 µM
| SMILES | inhibition [%] |
| --- | --- |
| COc1oc(=O)c2cc(N)ccc2c1Cl | 4.54 |
| CN1C(=O)C[C@@H](C(=O)N[C@@H](Cc2c[nH]cn2)C(=O)N2CCC[C@H]2C(N)=O)NC1=O | -1.71 |
| CC(=O)N[C@H]1CSSC[C@@H](C(N)=O)NC(=O)[C@H](C(C)C)NC(=O)[C@H](C)NC(=O)[C@H](Cc2c[nH]cn2)NC1=O | -3.07 |
| C=C(C)[C@@H]1CC[C@]2(CO)CC[C@]3(C)[C@H](CC[C@@H]4[C@@]5(C)CC[C@H](O)C(C)(C)[C@@H]5CC[C@]43C)[C@@H]12 | -1.56 |
| COc1ccccc1N1CCN(CCN2C(=O)c3ccccc3C(C)(C)C2=O)CC1 | 0.42 |
| C[C@H](Nc1ncnc2nc[nH]c12)c1cc2cccc(Cl)c2c(=O)n1-c1ccccc1 | 6.07 |
| CCOC(=O)c1ncn2c1CN(C)C(=O)c1cc(F)ccc1-2 | -1.77 |
| CN1CCN2c3c(cccc31)[C@@H]1CN(CCCC(=O)c3ccc(F)cc3)CC[C@@H]12 | 7.88 |
| CN(C)CCN1C(=O)c2cccc3cc(N)cc(c23)C1=O | 17.4 |
| O=c1n(Cl)c(=O)n(Cl)c(=O)n1Cl | 3.66 |
| CCN(CC)CCCCN1c2ccccc2Oc2ccc(Cl)cc21 | 27.2 |
| O=C1c2cccc(O)c2C(=O)c2c(O)cc(CO)cc21 | 38.5 |
| CC(C)NCCN(C(C)C)S(=O)(=O)c1ccc(Cl)cc1Cl | 2.33 |
| COc1ccc(C(=O)NCc2cccnc2)cc1C(=O)NCc1cccnc1 | -1.89 |
| COc1ccc(CN2CCNCC2)c(OC)c1OC | 3.54 |
| O=C1C(O)=C(O)C(=O)C(O)=C1O | 5.92 |
| COc1ccccc1OC(=O)c1ccccc1OC(C)=O | -0.21 |
| O=C(NCCNCC(O)COc1ccc(O)cc1)N1CCOCC1 (stereo not drawn) | 0.22 |
| Nc1nc2c(cnn2CCc2ccccc2)c2nc(-c3ccco3)nn12 | 3.29 |
| CCN(CC)Cc1nccn1-c1ccc([N+](=O)[O-])cc1C(=O)c1ccccc1Cl | 1.65 |
| O=C(O)COCCN1CCN(C(c2ccccc2)c2ccc(Cl)cc2)CC1 (stereo not drawn) | 5.33 |
| O=C(O)Cc1ccc(OCc2ccccc2)c(Cl)c1 | 3.6 |
| O=C(O)c1ccccc1Nc1cccc(OCc2ccc3ccccc3n2)c1 | 3.2 |
| CCO/N=C(\C(=O)N[C@@H]1C(=O)N2C(C(=O)[O-])=C(Sc3nc(-c4cc[n+](C)cc4)cs3)CS[C@H]12)c1nsc(NP(=O)(O)O)n1 | 4.61 |
| [N-]=[N+]=N[C@]1(CO)O[C@@H](n2ccc(N)nc2=O)[C@@H](O)[C@@H]1O | -0.36 |

Series 3
Target: RNA binding protein fox-1 homolog 2, RRM domain, GST-SBP tag (RBFOX2, Homo sapiens, UniProt O43251-10, residues 100-194)
Technique: RNA Bind-n-Seq
Molecule type: RNA
Medium: in vitro
Concentration: 365 nM
Setting: natural RNA segment, single round, ends assumed
Baseline: no-protein control
Direction: higher = stronger binding
Constant ends, left off below: GGGAGUUCUACAGUCCGACGAUC … UGGAAUUCUCGGGUGCCAA
Residues (chain): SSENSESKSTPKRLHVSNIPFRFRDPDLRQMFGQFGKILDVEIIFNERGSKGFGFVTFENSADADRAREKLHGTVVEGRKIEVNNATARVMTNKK
| Oligonucleotide | RBNS enrichment (R) |
| --- | --- |
| CUGUUAGAAUGAGCUAAGGGAGACUGUUUUGCGUCCUGAGUUUCUAUUUCAUUGGAUCAGGAAAUCAUCCACUUGCCAACCAGGCUCCAGUACUGGGAAACAUGGAAUGU | 1.98 |
| GUAAUUUAACUCUAUAAUUGCAGUUACAGCAUUUGGUUUUUGCCAUCUAAGAUUUUCUUGGUUUUAAACAAAAAUAUUCUAUCUUUAUCUGCAGCACAGAGGGAAAUCUG | 0.323 |
| GUUUUUUCCAGGGAAAACAAUGUGCUUCCUCAUGUUCAUGCCAAAUUGCACAAAGUGUAGGUAUUCAUGUUAAUGGAUAUUUAAGCACAGUCCUAGAAGGUAUGUUUUAA | 0.348 |
| GAGAUAGGGGGCAGCCUUCAAUGGCAGCUCAUACUUCACCUUCCCCAGACUUGCACUGGGGUAGGAUAUGGAACGAUGGGGAGGUUUUUAAGGGCCGGGGAUGGAUCUUU | 0.423 |
| AAAUAGGACCGAACAAAGCUACAUGAACACACCUGCUGUAGAGUUGAGGGGACCUCUCACCUGGUCACAUGAGGUUGAGGAGGGCCCAGUGUCCUGGCAGAUGAUCAGUA | 0.45 |
| UCACGUACCGAGUGGGCAGUGUCACAGCCAAAGCUACCACUGAGCCACAGCGUAGGUCAUUGCUUGAAAAAAAUGACAGUGACAAUGGAGUGUGACCUUGGUGUACUGUG | 1.02 |
| CACACCACAGCCCUAACACACCAGUUAUUCUCAGAGAAGCACUGCUCUGGAAGUUUGGCUACCUCUAGGCAUGUGAGAAGGAAGGAAAGCCUAUUGCCUUUUCUCCUUUU | 0.91 |
| AAGUCCUGAUCAGCUGUCAGAUUGUUCUGAGAGUCUCAUCGCUGUCCUCGAGUGUCCAGUCUCAGGUGAUCUUGACCUGAUCGGAGUCGCCAGGCAGUAUAUCCAGUUAG | 0.229 |

Series 4
Cell line: HEK-293T/ACE2
Concentration: concentration not given
Time: 16 (unit not given)
Baseline: vehicle
| SMILES | viability [%] |
| --- | --- |
| CC(C)(Sc1cc(C(C)(C)C)c(O)c(C(C)(C)C)c1)Sc1cc(C(C)(C)C)c(O)c(C(C)(C)C)c1 | 101 |
| CCCN(CCC)CCc1cccc2c1CC(=O)N2 | 102 |
| C#C[C@]1(O)CC[C@H]2[C@@H]3CCC4=CC(=O)CC[C@@H]4[C@H]3CC[C@@]21CC | 103 |
| C=C(c1ccc(C(=O)O)cc1)c1cc2c(cc1C)C(C)(C)CCC2(C)C | 105 |

Series 5
Target: Histone acetyltransferase KAT6A, winged helix 1, GST fusion (KAT6A, Homo sapiens, UniProt Q92794, residues 1-85)
Technique: protein binding microarray
Molecule type: double-stranded DNA, one strand shown
Medium: in vitro
Concentration: not given
Setting: 8-mer, flanks averaged, mean of 2 arrays, mostly near background
Baseline: not given
Direction: higher = stronger binding
Construct (chain): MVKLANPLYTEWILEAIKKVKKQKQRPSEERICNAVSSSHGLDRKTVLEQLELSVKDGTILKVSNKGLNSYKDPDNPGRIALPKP
| Oligonucleotide | E-score |
| --- | --- |
| AACGACCA | -0.256 |
| CAGCGTAA | 0.058 |
| ACTGACAT | -0.26 |
| GAGTCGTA | -0.124 |
| CTGGCAGC | -0.0391 |
| GAAGATGC | 0.0843 |
| ATCCAATA | -0.102 |
| CCGTCGAC | 0.226 |

Series 6
Target: Replicase polyprotein 1ab, main protease (rep, Severe acute respiratory syndrome coronavirus 2, UniProt P0DTD1)
Observed: enzyme activity
Mode: inhibitor
Concentration: 20 µM
Setting: hit confirmation, no DTT
| SMILES | inhibition |
| --- | --- |
| O=C1OC2(c3ccccc31)c1cc(Br)c(O)c(Br)c1Oc1c2cc(Br)c(O)c1Br | 97.7% |
| Oc1c(I)cc(I)c(O)c1I | 98.9% |
| CC1=C(/C=C/C(C)=C/C=C/C(C)=C/C(=O)O)C(C)(C)CCC1 | 71.7% |
| O=[N+]([O-])C=Cc1ccc2c(c1)OCO2 | 97.4% |
